Measured values from different studies.
Every numbered part comes from another study and shows a few of its results, in no order. Substitutions count along the parent as printed.
Chain of UniProt Q13976 (whole entry, looked up): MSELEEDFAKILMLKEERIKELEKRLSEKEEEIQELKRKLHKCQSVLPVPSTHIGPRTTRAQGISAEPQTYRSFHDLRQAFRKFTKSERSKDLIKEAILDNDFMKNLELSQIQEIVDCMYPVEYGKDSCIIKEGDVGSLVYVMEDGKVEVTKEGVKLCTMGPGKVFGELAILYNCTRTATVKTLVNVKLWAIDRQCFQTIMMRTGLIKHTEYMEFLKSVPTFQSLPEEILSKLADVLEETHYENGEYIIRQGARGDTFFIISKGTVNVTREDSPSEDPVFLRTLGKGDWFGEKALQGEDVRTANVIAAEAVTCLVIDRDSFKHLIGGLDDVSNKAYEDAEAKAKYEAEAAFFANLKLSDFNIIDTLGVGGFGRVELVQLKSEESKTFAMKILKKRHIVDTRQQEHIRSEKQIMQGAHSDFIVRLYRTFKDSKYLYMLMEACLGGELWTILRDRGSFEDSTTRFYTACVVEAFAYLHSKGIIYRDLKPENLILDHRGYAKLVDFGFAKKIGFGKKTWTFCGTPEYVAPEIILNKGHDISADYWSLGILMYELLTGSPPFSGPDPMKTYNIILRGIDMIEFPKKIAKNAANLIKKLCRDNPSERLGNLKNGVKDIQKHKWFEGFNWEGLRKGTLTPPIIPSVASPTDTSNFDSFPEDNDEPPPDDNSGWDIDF

Set 1 — target: CCNF, cyclin fold, Cln2 fusion (human); method: yeast growth competition, sequencing; matrix: yeast; notes: strong parent motif; reference: not given; reading: higher = stronger binding; starting sequence: viral docking peptide; TSVRRALFTGGSD
Substitution | normalised enrichment score
ASVRRALFTGGSD [T1A] | 9.03
TSHRRALFTGGSD [V3H] | 3.08
TSVRRALFTGGCD [S12C] | 8.4
TSVREALFTGGSD [R5E] | 0.108
TSVWRALFTGGSD [R4W] | 2.88
TSVRRALFTSGSD [G10S] | 8.3
TSVRRWLFTGGSD [A6W] | 1.98
TSVRRAAFTGGSD [L7A] | 0.631

Set 2 — read-out: binding; method: phage display NGS; molecule type: peptide; reference: input library
Target: UDP-N-acetylglucosamine--peptide N-acetylglucosaminyltransferase 110 kDa subunit (OGT, Homo sapiens, UniProt O15294)
Chain of UniProt O15294 (whole entry, looked up): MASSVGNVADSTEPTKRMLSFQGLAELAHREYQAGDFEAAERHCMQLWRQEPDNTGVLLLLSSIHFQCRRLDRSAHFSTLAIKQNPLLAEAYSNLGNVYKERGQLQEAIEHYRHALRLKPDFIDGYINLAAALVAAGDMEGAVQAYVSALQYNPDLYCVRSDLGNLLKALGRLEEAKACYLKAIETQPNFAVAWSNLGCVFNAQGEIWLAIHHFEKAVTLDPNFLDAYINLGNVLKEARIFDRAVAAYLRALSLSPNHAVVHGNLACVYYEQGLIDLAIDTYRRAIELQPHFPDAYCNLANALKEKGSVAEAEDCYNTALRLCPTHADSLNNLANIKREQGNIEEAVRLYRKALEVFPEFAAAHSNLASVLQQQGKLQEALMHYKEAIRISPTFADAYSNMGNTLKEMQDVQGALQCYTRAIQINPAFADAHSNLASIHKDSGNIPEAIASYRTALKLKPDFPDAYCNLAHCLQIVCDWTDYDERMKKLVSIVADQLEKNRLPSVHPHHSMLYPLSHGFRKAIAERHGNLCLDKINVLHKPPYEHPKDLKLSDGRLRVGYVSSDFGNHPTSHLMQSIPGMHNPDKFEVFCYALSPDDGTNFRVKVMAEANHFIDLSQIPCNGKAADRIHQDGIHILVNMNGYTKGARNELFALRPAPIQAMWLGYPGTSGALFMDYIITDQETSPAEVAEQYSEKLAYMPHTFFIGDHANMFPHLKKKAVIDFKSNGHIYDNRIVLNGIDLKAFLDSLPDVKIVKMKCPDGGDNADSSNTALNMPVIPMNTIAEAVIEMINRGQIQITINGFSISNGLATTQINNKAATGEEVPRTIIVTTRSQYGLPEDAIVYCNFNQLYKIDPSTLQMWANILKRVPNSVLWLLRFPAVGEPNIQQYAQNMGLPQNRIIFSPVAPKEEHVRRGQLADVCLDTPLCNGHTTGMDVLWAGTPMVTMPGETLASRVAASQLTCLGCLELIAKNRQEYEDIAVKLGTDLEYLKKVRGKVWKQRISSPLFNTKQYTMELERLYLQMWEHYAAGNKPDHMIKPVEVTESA
Sequence | minimum log2 enrichment ratio
TIEHHHRTHTPMPSY | 3
WNAPRHHDTHWHVYT | 2.31
TPYPPYYPIVYMRT | 2.15
TFRTHHFHHDLSQF | 3.29
QFQSRYRPFYQINVV | 3.46
TYHAAHVRTWSQHHA | 2.64
FPHHPQDHMRLNVFT | 1.64
SRSHPVEQPVNFQHH | 1.59

Set 3 — target: inorganic phosphate, free oxyanion; method: microfluidic competitive inhibition; matrix: in vitro, cell-free expressed; tested at: not given; reading: lower = stronger binding
Notes: derived from inhibition constants, unchanged parent 615000 nM
Starting sequence: PafA, mature enzyme, eGFP fusion (Elizabethkingia meningoseptica, UniProt Q9KJX5); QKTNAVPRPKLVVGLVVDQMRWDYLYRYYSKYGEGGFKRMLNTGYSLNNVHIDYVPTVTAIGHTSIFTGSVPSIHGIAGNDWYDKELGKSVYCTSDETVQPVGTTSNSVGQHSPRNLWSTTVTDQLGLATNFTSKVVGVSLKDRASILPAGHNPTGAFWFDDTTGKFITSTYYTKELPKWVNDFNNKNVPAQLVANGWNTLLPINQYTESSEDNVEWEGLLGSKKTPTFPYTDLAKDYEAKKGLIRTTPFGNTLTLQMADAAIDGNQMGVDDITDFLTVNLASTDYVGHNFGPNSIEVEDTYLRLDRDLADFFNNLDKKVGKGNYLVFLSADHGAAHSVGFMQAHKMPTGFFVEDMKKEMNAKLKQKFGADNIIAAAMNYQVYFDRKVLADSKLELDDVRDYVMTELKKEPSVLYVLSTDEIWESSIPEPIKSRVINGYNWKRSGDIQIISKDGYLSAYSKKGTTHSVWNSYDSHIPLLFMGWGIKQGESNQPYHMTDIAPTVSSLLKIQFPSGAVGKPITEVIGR
Substitution | phosphate dissociation constant [µM]
Y173V | 518
L15V | 673
G269A | 594
Q19G | 1320
M360G | 546
Q192V | 641
A261G | 630
P72G | 361

Further values, each from its own experiment
SMILES | target | read-out | mode | tested at | reference | measurement | value
O=c1[nH]c2ccccc2n1C1CCN(Cc2ccc(-c3[nH]c4cc5ncnc5cc4nc3-c3ccccc3)cc2)CC1 | cGMP-dependent protein kinase 1 (PRKG1, Homo sapiens, UniProt Q13976) | enzyme activity | inhibitor | 0.5 µM | control | remaining activity | 103%
